# Measurements from different studies.
# The chains behind the UniProt entries cited, without tags or fusion partners. Residues count along the entry.
# UniProt P41146, whole entry: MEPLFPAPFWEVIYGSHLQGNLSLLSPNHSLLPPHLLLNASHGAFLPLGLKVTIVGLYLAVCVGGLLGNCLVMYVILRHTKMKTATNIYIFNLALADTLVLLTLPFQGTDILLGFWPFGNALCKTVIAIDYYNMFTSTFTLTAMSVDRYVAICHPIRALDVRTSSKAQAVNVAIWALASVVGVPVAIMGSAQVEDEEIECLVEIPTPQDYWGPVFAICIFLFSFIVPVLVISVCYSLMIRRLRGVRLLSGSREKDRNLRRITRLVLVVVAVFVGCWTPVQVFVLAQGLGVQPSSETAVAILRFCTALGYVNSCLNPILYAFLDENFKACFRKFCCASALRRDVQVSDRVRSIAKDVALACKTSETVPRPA
# UniProt P22303, whole entry, looked up: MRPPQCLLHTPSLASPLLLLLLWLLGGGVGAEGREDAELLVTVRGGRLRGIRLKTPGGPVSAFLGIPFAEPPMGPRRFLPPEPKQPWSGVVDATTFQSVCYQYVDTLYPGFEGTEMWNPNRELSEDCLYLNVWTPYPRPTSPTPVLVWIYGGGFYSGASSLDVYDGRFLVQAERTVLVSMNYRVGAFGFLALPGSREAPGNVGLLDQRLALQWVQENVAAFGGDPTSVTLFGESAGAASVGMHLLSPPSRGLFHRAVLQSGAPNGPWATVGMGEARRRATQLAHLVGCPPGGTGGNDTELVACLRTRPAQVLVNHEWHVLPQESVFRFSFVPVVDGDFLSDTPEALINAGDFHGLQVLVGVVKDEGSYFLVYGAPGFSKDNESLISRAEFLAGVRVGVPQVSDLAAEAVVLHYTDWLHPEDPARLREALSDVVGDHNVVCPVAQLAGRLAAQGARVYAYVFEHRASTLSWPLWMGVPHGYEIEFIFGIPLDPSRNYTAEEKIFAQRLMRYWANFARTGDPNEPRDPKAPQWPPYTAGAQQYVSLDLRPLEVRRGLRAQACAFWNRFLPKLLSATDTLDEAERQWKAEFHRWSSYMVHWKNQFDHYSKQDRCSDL
# UniProt P26045, 646-901 limits assumed: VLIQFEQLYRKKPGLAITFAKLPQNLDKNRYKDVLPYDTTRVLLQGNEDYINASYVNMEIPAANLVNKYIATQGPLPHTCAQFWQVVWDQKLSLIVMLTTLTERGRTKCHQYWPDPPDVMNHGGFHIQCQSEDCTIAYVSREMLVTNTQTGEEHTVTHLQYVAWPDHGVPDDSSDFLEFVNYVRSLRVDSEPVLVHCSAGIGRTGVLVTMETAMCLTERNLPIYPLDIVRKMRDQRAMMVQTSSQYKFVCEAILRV
# UniProt Q9Y6W6, 321-464 limits assumed: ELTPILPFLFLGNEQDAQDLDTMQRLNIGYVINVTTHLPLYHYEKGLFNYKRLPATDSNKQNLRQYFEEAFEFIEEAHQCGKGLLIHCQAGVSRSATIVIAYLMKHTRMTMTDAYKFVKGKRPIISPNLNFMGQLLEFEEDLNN
# UniProt O42275, whole entry, looked up: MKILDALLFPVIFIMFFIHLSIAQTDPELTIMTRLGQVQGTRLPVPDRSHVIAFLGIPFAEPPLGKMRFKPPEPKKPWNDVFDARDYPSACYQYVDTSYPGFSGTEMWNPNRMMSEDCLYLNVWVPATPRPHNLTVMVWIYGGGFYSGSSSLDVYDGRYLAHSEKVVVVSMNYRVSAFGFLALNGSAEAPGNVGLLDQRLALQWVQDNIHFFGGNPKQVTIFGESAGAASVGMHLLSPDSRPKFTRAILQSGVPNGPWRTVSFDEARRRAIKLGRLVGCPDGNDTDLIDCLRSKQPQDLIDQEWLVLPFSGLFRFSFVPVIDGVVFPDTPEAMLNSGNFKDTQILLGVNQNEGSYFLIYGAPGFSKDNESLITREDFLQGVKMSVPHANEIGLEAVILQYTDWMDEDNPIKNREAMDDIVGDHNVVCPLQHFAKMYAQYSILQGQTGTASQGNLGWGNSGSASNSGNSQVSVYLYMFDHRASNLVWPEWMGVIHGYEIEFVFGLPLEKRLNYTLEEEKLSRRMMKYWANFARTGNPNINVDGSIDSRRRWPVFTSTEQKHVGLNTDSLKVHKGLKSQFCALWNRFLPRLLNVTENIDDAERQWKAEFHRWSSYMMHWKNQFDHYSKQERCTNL
# UniProt P35372, whole entry: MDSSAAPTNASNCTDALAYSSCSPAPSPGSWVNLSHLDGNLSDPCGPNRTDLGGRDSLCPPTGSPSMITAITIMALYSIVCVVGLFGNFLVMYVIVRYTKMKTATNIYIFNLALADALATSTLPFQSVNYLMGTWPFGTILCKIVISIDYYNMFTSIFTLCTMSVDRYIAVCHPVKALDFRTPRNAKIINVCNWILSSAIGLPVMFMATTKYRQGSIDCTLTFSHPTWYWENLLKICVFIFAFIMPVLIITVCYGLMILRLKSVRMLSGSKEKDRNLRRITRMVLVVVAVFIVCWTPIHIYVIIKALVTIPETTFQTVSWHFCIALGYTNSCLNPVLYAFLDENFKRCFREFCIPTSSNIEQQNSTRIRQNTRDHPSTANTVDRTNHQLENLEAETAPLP
# UniProt Q8WSF8, 18-236 limits assumed: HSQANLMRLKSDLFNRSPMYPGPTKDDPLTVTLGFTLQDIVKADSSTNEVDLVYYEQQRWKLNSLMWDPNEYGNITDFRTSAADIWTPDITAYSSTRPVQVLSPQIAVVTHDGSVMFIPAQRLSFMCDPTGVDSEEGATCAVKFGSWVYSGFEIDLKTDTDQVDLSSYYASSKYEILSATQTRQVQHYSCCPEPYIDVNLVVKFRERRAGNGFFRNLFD
# UniProt P08104, whole entry: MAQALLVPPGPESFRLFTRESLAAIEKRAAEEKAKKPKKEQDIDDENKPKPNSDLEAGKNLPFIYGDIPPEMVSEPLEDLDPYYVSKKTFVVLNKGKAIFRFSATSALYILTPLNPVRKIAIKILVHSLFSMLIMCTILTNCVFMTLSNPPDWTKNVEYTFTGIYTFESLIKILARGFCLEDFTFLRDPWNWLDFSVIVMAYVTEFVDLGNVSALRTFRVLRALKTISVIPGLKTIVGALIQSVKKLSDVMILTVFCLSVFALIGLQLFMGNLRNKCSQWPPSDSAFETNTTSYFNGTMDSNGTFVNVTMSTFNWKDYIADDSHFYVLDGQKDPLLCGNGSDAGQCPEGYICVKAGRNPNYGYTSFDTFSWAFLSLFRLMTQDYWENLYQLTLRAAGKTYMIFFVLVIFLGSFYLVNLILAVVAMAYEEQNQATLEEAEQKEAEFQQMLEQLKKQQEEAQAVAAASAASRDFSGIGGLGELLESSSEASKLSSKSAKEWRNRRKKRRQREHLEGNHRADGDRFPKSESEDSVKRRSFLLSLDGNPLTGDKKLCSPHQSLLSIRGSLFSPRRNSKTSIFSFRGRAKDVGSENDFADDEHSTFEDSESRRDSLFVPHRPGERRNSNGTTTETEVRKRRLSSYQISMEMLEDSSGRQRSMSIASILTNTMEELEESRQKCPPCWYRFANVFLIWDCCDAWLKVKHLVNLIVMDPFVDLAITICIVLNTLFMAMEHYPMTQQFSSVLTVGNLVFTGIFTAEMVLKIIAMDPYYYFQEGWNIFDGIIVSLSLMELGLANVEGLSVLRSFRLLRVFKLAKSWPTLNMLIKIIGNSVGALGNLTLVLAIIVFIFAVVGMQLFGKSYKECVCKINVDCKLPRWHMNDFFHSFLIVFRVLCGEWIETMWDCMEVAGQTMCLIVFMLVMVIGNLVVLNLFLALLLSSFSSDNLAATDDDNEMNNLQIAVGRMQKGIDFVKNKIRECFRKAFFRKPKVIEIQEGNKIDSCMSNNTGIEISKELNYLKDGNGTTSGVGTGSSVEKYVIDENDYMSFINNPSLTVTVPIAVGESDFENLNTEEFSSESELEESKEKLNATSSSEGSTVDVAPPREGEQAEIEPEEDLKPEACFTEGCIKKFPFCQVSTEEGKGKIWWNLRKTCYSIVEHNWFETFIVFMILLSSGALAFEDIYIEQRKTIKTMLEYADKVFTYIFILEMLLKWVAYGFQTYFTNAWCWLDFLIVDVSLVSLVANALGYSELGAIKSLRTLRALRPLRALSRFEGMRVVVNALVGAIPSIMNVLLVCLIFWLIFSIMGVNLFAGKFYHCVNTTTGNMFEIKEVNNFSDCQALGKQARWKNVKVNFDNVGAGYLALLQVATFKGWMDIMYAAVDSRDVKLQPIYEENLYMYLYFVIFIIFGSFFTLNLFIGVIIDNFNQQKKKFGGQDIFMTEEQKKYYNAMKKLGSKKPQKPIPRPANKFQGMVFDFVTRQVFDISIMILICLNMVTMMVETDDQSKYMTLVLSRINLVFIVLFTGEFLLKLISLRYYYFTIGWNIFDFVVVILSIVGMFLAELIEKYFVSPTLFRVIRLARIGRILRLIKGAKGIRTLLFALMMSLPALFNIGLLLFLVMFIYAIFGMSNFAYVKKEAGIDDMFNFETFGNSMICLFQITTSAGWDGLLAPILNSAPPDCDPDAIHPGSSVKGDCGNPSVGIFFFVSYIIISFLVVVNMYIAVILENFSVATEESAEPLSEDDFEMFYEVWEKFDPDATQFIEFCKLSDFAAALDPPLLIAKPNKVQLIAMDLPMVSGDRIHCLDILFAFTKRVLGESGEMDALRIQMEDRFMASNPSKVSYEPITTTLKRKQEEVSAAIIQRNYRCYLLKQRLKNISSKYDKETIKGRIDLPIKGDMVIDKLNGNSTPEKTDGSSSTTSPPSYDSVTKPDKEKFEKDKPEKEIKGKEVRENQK
# UniProt P15390, whole entry: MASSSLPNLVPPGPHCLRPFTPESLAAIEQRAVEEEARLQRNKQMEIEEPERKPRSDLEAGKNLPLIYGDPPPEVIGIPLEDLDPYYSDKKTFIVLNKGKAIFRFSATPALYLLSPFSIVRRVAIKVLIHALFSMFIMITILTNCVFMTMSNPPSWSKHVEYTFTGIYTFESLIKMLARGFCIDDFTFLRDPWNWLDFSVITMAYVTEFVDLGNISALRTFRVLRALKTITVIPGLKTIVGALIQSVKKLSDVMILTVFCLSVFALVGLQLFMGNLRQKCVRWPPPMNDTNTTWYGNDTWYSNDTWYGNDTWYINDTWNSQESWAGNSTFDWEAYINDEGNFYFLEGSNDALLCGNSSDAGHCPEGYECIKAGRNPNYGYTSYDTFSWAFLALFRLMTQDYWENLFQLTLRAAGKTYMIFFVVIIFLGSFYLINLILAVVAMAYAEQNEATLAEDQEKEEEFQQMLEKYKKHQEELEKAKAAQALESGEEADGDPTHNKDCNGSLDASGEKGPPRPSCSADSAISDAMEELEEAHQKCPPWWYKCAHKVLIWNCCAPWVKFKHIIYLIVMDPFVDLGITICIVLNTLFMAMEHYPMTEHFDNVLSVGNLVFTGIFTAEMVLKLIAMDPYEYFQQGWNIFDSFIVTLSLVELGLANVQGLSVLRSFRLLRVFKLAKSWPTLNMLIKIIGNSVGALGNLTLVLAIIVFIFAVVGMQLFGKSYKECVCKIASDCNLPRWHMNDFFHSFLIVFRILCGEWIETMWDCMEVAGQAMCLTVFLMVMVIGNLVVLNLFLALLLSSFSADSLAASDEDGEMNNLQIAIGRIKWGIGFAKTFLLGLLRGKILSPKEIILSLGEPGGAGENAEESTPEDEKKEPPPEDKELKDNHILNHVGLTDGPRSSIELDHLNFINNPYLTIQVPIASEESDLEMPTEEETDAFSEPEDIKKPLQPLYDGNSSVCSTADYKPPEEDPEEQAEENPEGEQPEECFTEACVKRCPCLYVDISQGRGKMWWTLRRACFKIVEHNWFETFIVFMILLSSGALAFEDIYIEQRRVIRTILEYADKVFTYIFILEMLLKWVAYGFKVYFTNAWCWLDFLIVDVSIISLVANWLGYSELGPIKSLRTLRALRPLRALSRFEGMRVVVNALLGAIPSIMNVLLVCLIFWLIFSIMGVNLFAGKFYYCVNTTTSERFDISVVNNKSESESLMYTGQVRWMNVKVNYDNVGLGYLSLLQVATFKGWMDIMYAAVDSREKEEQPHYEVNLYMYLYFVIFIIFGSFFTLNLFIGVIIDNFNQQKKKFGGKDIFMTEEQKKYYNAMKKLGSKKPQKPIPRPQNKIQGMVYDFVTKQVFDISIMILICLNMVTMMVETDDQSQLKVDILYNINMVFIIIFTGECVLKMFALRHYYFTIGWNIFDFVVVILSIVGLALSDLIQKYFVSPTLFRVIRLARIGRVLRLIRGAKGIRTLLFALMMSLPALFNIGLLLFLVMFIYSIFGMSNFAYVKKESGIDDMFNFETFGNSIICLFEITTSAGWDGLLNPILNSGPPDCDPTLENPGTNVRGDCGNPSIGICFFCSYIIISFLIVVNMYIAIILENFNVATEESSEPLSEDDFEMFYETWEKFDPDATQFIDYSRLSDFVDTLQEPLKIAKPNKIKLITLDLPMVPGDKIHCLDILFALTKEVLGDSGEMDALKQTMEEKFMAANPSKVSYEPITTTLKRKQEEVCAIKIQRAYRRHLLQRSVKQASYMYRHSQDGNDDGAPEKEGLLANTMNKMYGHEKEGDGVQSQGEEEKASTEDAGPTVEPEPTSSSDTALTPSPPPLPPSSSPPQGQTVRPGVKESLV
# UniProt P59768, 2-68 partner limits assumed: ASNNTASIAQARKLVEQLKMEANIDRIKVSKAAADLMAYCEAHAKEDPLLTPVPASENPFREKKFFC
# Each line is one published result; not all experiments were run side by side. Values joined by “and” are separate records of one study, mostly repeats; a detail may differ. Numbers after ± are the reported error.
# OPRL1: Nociceptin receptor (OPRL1, Homo sapiens, UniProt P41146)
# Secreted effector protein C403A/D356A: Secreted effector protein (Yersinia pestis, UniProt O68720, C403A/D356A)
# Scn2a: Sodium channel protein type 2 subunit alpha (Scn2a, Rattus norvegicus, UniProt P04775)
SMILES,target,assay,system,setting,scale,measurement,result
CCN(CC)Cc1cc(N)ccc1O,"Acetylcholinesterase, VX-inhibited (ACHE, Homo sapiens, UniProt P22303)","enzyme reactivation, reactivator",VX,concentration not given,,reactivation rate kr,0.5 ± 0.2 min⁻¹
CC[C@H](C)[C@@H]1NC(=O)[C@H](CCCNC(=N)N)NC(=O)[C@@H](N)CSSC[C@@H]2NC(=O)[C@@H]3CSSC[C@@H](C(=O)N[C@H](C(=O)O)C(C)C)NC(=O)[C@H](CCCCN)NC(=O)[C@H](CC(N)=O)NC(=O)[C@H](Cc4ccccc4)NC(=O)[C@H](CCCNC(=N)N)NC(=O)[C@H](CC(N)=O)NC(=O)[C@H](CSSC[C@H](NC(=O)[C@H](CCCCN)NC(=O)[C@H](CCC(N)=O)NC(=O)[C@H](CC(N)=O)NC(=O)[C@@H]4C[C@@H](O)CN4C1=O)C(=O)N[C@@H](Cc1ccccc1)C(=O)N[C@@H](CCC(N)=O)C(=O)N[C@@H](Cc1c[nH]cn1)C(=O)N[C@@H](CC(C)C)C(=O)N[C@@H](CC(=O)O)C(=O)N[C@@H](CC(=O)O)C(=O)N3)NC(=O)[C@H](CCCCN)NC(=O)[C@H](CCCNC(=N)N)NC(=O)[C@H](CO)NC2=O,"Sh (Drosophila melanogaster, UniProt P08510, del6-46)","potassium current, outside-out patch clamp",,"500 nM, pulse application, zero voltage, internal K 100, together with: 1 mM TEA",,koff,15 ± 1 s⁻¹
O=C1Cc2ccccc2N1C1CCN([C@@H]2CC[C@H]3CCCc4cccc2c43)CC1,OPRL1,"G protein activation, GTPγS binding",CHO membranes,unit not given,relative to: basal binding,Emax,4.95 ± 0.77
O=C(NCc1ccc(F)cc1)C1C(=O)N(O)C(=O)c2cc([N+](=O)[O-])ccc21 (stereo not shown),"Replicase polyprotein 1ab, nsp14 with nsp10 (rep, Severe acute respiratory syndrome coronavirus 2, UniProt P0DTD1)","exonuclease activity, inhibitor",,20 µM,,inhibition,106%
CC(C)[C@H]1CC[C@@H](N2CCC3(CC2)C(=O)NCN3c2ccccc2)CC1,OPRL1,"G protein activation, GTPγS binding",CHO membranes,"concentration not given, unit not given",relative to: compound over N/OFQ Emax,intrinsic activity,0.88
CC(=O)N[C@@H](Cc1c[nH]cn1)C(=O)N[C@@H](CC(=O)O)C(=O)NCC(=O)N[C@@H](CC(C)C)C(=O)N[C@@H](Cc1ccc(O)cc1)C(=O)N[C@@H](CCC(N)=O)C(=O)NCC(=O)N[C@@H](CC(C)C)C(=O)N[C@@H](CO)C(=O)N[C@H](C(=O)N[C@@H](C)C(=O)N[C@H](C(=O)N[C@@H](CCCCN)C(=O)N[C@@H](CC(=O)O)C(=O)N[C@H](C(=O)N[C@@H](Cc1cc(=O)oc2cc(OP(=O)(O)O)ccc12)C(=O)N[C@@H](CC(=O)O)C(=O)N[C@@H](C)C(=O)N[C@@H](CC(C)C)C(=O)N[C@@H](Cc1c[nH]cn1)C(N)=O)[C@@H](C)O)[C@@H](C)O)[C@@H](C)O,"PTPN3 (Homo sapiens, UniProt P26045)",substrate,,"pH 6, TCR zeta-chain ITAM peptide",,kcat,1.45 s⁻¹
Cc1ccc(S(=O)(=O)Nc2cccc(C(=O)NC3CCN(c4ncnc5[nH]cnc45)CC3)c2)cc1,"Replicase polyprotein 1ab, nsp14 ExoN with nsp10 (rep, Severe acute respiratory syndrome coronavirus 2, UniProt P0DTD1)",ExoN activity,,0.04883 µM,,inhibition,10.1%
CC[C@H](C)[C@H](NC(=O)[C@H](CC(C)C)NC(=O)[C@H](Cc1ccc(OP(=O)(O)O)cc1)NC(=O)[C@H](CCC(=O)O)NC(=O)[C@H](CC(=O)O)NC(=O)[C@H](C)NC(=O)[C@H](CC(=O)O)NC(=O)[C@@H](NC(=O)[C@H](CC(C)C)NC(=O)CCCC[C@@H]1SC[C@@H]2NC(=O)N[C@@H]21)C(C)C)C(=O)N1CCC[C@H]1C(=O)N[C@@H](CCC(N)=O)C(=O)N[C@@H](CCC(N)=O)C(=O)NCC(=O)O,Secreted effector protein C403A/D356A,surface plasmon resonance,,immobilized protein,,kon,88.8 M⁻¹ s⁻¹
CC(=O)N[C@@H](Cc1c[nH]cn1)C(=O)N[C@H](C(=O)NCC(=O)N[C@@H](Cc1ccccc1)C(=O)N[C@@H](CC(C)C)C(=O)N[C@H](C(=O)N[C@@H](CCC(=O)O)C(=O)N[C@@H](Cc1cc(=O)oc2cc(OP(=O)(O)O)ccc12)C(=O)N[C@H](C(=O)N[C@@H](C)C(=O)N[C@H](C(=O)N[C@@H](CCCNC(=N)N)C(=O)N[C@@H](Cc1c[nH]c2ccccc12)C(N)=O)[C@@H](C)O)C(C)C)[C@@H](C)O)[C@@H](C)O,"Dual specificity protein phosphatase 10 (Homo sapiens, UniProt Q9Y6W6)",substrate,,"pH 6, ERK1/2 activation-loop peptide",,kcat/Km,10600 M⁻¹ s⁻¹
O=C(C1CCNC1)N1CCc2c(F)cc(F)cc21 (stereo not shown),"ache (Electrophorus electricus, UniProt O42275)","enzyme activity, inhibitor, Ellman",,"560 µM, together with: acetylthiocholine iodide",,Vmax,0.02 absorbance units/min
CNC(=O)CC1C(=O)N(C2CCN([C@H]3CC[C@@H](C(C)C)CC3)CC2)c2ccccc21 (stereo partly shown),OPRL1,"G protein interaction, BRET",HEK293 membranes,,relative to: compound EC50 over N/OFQ EC50,potency ratio,4
N[C@@H](Cc1ccc(OP(=O)(O)O)cc1)C(=O)O,Secreted effector protein C403A/D356A,surface plasmon resonance,,immobilized protein,,kon,0.399 M⁻¹ s⁻¹
COC(=O)[C@@H]1C=C(OC(=O)c2ccc(CO)cc2)C(=O)[C@H]2[C@@]1(C)CC[C@H]1C(=O)O[C@H](c3ccoc3)C[C@]21C,"OPRM1 (Homo sapiens, UniProt P35372)",agonist,,,"relative to: fentanyl, higher = more potent",potency ratio,> 5
C=CC1=C[C@@H]2[C@@H]3O[C@]4(C[C@H]5CCC[C@@]6(CC[C@@]7(O[C@@H](CC[C@@]7(C)O)CC(=C)CCCC7=NC[C@H](C)[C@@H](C)C[C@@]72CC1)O6)O5)C[C@@H](C)[C@@H](O)[C@H]3O4,"Soluble acetylcholine receptor (Aplysia californica, UniProt Q8WSF8)",,,,relative to: L-AChBP Kd over Soluble acetylcholine receptor Kd,selectivity ratio,~400 fold and 420 fold
C[C@@H]1NC(=O)[C@H](Cc2c[nH]c3ccccc23)NC(=O)[C@H](CCCCN)NC(=O)COCCNC(=O)[C@@H]2CSSC[C@@H](C(N)=O)NC(=O)[C@H](CSSC[C@H](N)C(=O)N[C@@H](CC(N)=O)C(=O)N2)NC(=O)[C@H](CCCNC(=N)N)NC(=O)[C@H](CO)NC(=O)[C@H](Cc2c[nH]cn2)NC(=O)[C@H](CC(=O)O)NC(=O)[C@H](CCCNC(=N)N)NC1=O,Scn2a,"sodium current, blocker, two-electrode voltage clamp",Xenopus oocytes,1 µM,,block,93 ± 1%
CC(C)[C@H](N)C(=O)NCC(=O)N[C@@H](CCC(=O)O)C(=O)N[C@@H](CCCNC(=N)N)C(=O)N[C@H]1CSSC[C@@H]2NC(=O)[C@H](Cc3c[nH]c4ccccc34)NC(=O)[C@H](CCCNC(=N)N)NC(=O)CNC(=O)[C@H](CSSC[C@@H](C(N)=O)NC(=O)[C@H](C)NC(=O)[C@H](CCCNC(=N)N)NC(=O)[C@H](CO)NC(=O)[C@H](Cc3c[nH]cn3)NC(=O)[C@H](CC(=O)O)NC(=O)[C@H](CCCNC(=N)N)NC2=O)NC(=O)CNC(=O)[C@H](CCCNC(=N)N)NC(=O)[C@H](CCCCN)NC(=O)CNC(=O)[C@H](CC(N)=O)NC(=O)[C@H](CCCCN)NC(=O)[C@H](C)NC1=O,"Scn3a (Rattus norvegicus, UniProt P08104)","sodium current, two-electrode voltage clamp",,,relative to: analogue over wild-type µ-conotoxin BuIIIB,Kd ratio,1.3
CC(C)[C@H](N)C(=O)N[C@H](C(=O)N[C@@H](CC(=O)O)C(=O)N[C@@H](CCCNC(=N)N)C(=O)N[C@H]1CSSC[C@@H]2NC(=O)[C@H](Cc3c[nH]c4ccccc34)NC(=O)[C@H](CCCNC(=N)N)NC(=O)CNC(=O)[C@@H]3CSSC[C@@H](C(N)=O)NC(=O)[C@H](CSSC[C@H](NC1=O)C(=O)N[C@@H](CCCCN)C(=O)NCC(=O)N[C@@H](CCCCN)C(=O)N[C@@H](CCCNC(=N)N)C(=O)N[C@@H](CCC(=O)O)C(=O)N3)NC(=O)[C@H](CCCNC(=N)N)NC(=O)[C@H](CO)NC(=O)[C@H](Cc1c[nH]cn1)NC(=O)[C@H](CC(=O)O)NC(=O)[C@H](CCCNC(=N)N)NC2=O)[C@@H](C)O,"Scn4a (Rattus norvegicus, UniProt P15390)","sodium current, two-electrode voltage clamp",Xenopus oocytes,"1 µM, 30 min",,inhibition,~87%
CN1C(=O)CCc2cc(C(=O)NCC=CS(C)(=O)=O)ccc21,"Polyprotein P1234, nsP2 protease (Chikungunya virus, UniProt Q5XXP4)",time-dependent inhibition,,,,kinact/KI,1100 ± 60 M⁻¹ s⁻¹
CN1CC(=O)N[C@@H](Cc2c[nH]c3ccccc23)C(=O)N[C@H]2CSSC[C@H](N)C(=O)N[C@H]3CSSC[C@H](NC(=O)[C@H](CCCNC(=N)N)NC(=O)[C@H](CO)NC(=O)[C@H](Cc4c[nH]cn4)NC(=O)[C@H](CC(=O)O)NC(=O)[C@H](CCCNC(=N)N)NC2=O)C(=O)N[C@H](C(N)=O)CSSC[C@H](NC(=O)[C@H](CC(N)=O)NC3=O)C(=O)N[C@@H](CO)C(=O)N[C@@H](CO)C1=O,Scn2a,"sodium current, blocker, two-electrode voltage clamp",Xenopus oocytes,10 µM,,kobs,1.1 ± 0.5 min⁻¹

# Repeated from above:
SMILES,target,assay,system,setting,scale,measurement,result
CC(C)[C@H](N)C(=O)NCC(=O)N[C@@H](CCC(=O)O)C(=O)N[C@@H](CCCNC(=N)N)C(=O)N[C@H]1CSSC[C@@H]2NC(=O)[C@H](Cc3c[nH]c4ccccc34)NC(=O)[C@H](CCCNC(=N)N)NC(=O)CNC(=O)[C@H](CSSC[C@@H](C(N)=O)NC(=O)[C@H](C)NC(=O)[C@H](CCCNC(=N)N)NC(=O)[C@H](CO)NC(=O)[C@H](Cc3c[nH]cn3)NC(=O)[C@H](CC(=O)O)NC(=O)[C@H](CCCNC(=N)N)NC2=O)NC(=O)CNC(=O)[C@H](CCCNC(=N)N)NC(=O)[C@H](CCCCN)NC(=O)CNC(=O)[C@H](CC(N)=O)NC(=O)[C@H](CCCCN)NC(=O)[C@H](C)NC1=O,"Scn3a (Rattus norvegicus, UniProt P08104)","sodium current, two-electrode voltage clamp",,,relative to: analogue over wild-type µ-conotoxin BuIIIB,Kd ratio,1.3
CCN(CC)Cc1cc(N)ccc1O,"Acetylcholinesterase, VX-inhibited (ACHE, Homo sapiens, UniProt P22303)","enzyme reactivation, reactivator",VX,concentration not given,,reactivation rate kr,0.5 ± 0.2 min⁻¹
